Measurements from different studies.
Every numbered part comes from another study and shows a few of its results, in no order. Values joined by “and” are separate records of one study, mostly repeats; a detail may differ. Positions count from the first letter of the parent shown.

Series 1
Target: RNA binding protein fox-1 homolog 2, RRM domain, GST-SBP tag (RBFOX2, Homo sapiens, UniProt O43251-10, residues 100-194)
Technique: RNA Bind-n-Seq
Form: RNA
Matrix: in vitro
Tested at: 365 nM
Notes: natural RNA segment, single round, ends assumed
Baseline: no-protein control
Direction: higher = stronger binding
Quantity: RBNS enrichment (R)
Constant ends, left off below: GGGAGUUCUACAGUCCGACGAUC … UGGAAUUCUCGGGUGCCAA
Target sequence (chain): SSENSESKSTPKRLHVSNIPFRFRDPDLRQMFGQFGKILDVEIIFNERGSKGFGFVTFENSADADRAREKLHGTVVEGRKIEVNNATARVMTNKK
UCUUAACAGAAAUAUUUUUAAAAAUGAAAAAGUACUCAAAAGUGAGAAGAGUUAACUUGUCAAAGCAGAAUGGUUCUCUUUGACCCACUCUGGUCUAUUGUGUAAAUAUU: 0.843
ACGAUCAGGAAACCAACCAGGAAUCUCAGACAUCAGAAACCCUAGUAAAGAAGUGAAUGAGUGGCCAAAGUCUAUAGAGGCUUCCCUUUAGCAAGCCCUGAGAUAUAGUA: 2.57
CUGGUGGCUAGUGCCUUCAUAUUAGAGCACCUUCUCUGAGGCUGAUUGGUGGGCAGGUAGGGAAGACAUUGAGCAGACAGUGUCCGCUCAGUUGUCCUUCCCUCCCUUCC: 0.158
CAGAGUGCUUUAUGCUUUUUAAUGACUGUUAGUGUUUCUCACAUGCCUGUGAGAUACAUCAGCAUUGCAAACUGUGACUGGGGAAAGUCUGGGGGAGGAGUGUGGUAAGC: 0.935
AACUAAGAACUUUCUGGAGCCUGGUGCCCUACUACCUUCCUGCCUCAGAAGAGCUCAUGUCCUGGGACGGUGGUGCUGGAGCCUGGGCGAGCCUUCCACUCUCCCACGGU: 0.983
GUGAAGGUAGGGGUGAGCUCGUCUCACCCCUUUAUUAAAUGCUCCUGGAACUUGGAAGAGCAGCAGAUGAAGUUGGAAAGAAAAUUCUGCUCUUAUCACCUAAACAGGAC: 0.468
CUCUGCCUGUCUCCCCCACCGGGCUGGGAGCUCUGCAGAGCAGGAAACAUGACUCGUAUAUGUCUCAGGUCCCUGCAGGGCCAAGCACCUAGCCUCGCUCUUGGCAGGUA: 0.274
UCCCCACAGCCUCCCCAGAUAGCUGUGUGCCUGUGCGCUACUGCUGUGCCAUUUUCCCAACUUGGCGUUUCACUAAAUGCAGCUGAUCUCUCUCUCUGUGCACUCGUGAU: 0.96

Series 2
Target: ABI1, truncated, D143A, DHFR fusion (Arabidopsis thaliana, UniProt P49597)
Technique: DHFR PCA, dose-response
Matrix: yeast
Notes: Hill fit, mean, not affinity
Together with: (+)-ABA, dose series
Direction: lower = more sensitive
Quantity: ABA EC50
Starting sequence: PYL1, truncated, DHFR fusion (Arabidopsis thaliana, UniProt Q8VZS8); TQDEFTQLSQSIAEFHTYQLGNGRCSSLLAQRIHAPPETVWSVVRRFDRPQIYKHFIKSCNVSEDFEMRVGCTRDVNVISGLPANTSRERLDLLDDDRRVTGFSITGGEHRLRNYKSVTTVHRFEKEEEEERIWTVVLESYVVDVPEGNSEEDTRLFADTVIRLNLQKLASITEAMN
W134G: 2.06 µM
D92E: 8.42 µM
V70Y: 87.7 µM
E129L: 3.76 µM
K126E: 2.44 µM
R163N: 10.5 µM
E174R: 21.5 µM
L156C: 0.681 µM

Series 3
Target: CCNE2, cyclin fold, Cln2 fusion (human)
Technique: yeast growth competition, sequencing
Matrix: yeast
Notes: weak parent motif
Baseline: not given
Direction: higher = stronger binding
Quantity: normalised enrichment score
Starting sequence: MASTL docking peptide (human); PMIAKNLMCELDE
PMIAKNLHCELDE [M8H]: -0.151
PAIAKNLMCELDE [M2A]: -0.228
PMIAKNLMCEVDE [L11V]: -0.146
PMIAKNLMCELAE [D12A]: 0.136
PTIAKNLMCELDE [M2T]: 0.122
PMIAKNLMCELTE [D12T]: 0.015
PMIAKNLVCELDE [M8V]: 0.247

Further values, each from its own experiment
PhoQ, residues 284 288 289 292 302 303 TVTVVA — fold induction (PhoP, residues 12 14 15 18 19 LWHSL (Escherichia coli, UniProt P23836); Sort-seq, item: YFP reporter; E. coli; PhoQ-PhoP variant library, together with: 10 µM Mg2+; baseline: high Mg2+ state, higher = stronger signaling): 4.96 and 8.37

A few entries again (series 3):
PMIAKNLHCELDE [M8H]: -0.151
PAIAKNLMCELDE [M2A]: -0.228
